{"data": "Assay results from different studies", "note": "A part holds a random share of what one study measured."}
{"data": "Series 1", "target": "RING finger protein unkempt homolog, zinc fingers 1-6, GST-SBP tag (UNK, Homo sapiens, UniProt Q9C0B0, residues 30-357)", "technique": "RNA Bind-n-Seq", "molecule type": "RNA", "matrix": "in vitro", "tested at": "not given", "setting": "RNA with constant flanks, human-mouse chimeric sites, ends assumed", "reference": "input RNA pool", "reading": "higher = stronger binding", "shared flanks, not repeated": "GGGAGUUCUACAGUCCGACGAUC … CAACAGAGGAUUGAGCAUCA", "UniProt Q9C0B0, sequence (30-357, looked up)": "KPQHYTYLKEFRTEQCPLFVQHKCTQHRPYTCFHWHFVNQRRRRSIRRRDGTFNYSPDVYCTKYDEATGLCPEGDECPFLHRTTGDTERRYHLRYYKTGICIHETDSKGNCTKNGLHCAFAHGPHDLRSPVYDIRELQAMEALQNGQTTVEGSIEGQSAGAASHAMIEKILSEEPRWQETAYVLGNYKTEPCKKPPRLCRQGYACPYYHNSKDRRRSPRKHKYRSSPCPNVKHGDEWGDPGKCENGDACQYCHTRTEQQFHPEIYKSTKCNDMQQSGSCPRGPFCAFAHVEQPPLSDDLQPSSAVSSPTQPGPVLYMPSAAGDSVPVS"}
{"Oligonucleotide": "AAAUCGUGUGUGUCCAAUAUUGAAAGUGCUUUAUCUACACUCCAGUAUGUAAGCAGUAUAGUAGUUUCUUUAGAGAAUAGGUCAGCCAUUGUGAAGUAUAAUGCAAGCUUAGUCACUCCA", "bound/input enrichment": "6.66 ratio"}
{"Oligonucleotide": "CUGUGACCACAAGAUCCUACCUGAGUGGCAGCUGAAGCACUUUUCUUCUCCUUGCCUGAACCCCCCCCCACUGCCCCCCCAUCCCCCAGUGUCGGCUGAGAUGUUGCCUCUGCACGGUUC", "bound/input enrichment": "1.32 ratio"}
{"Oligonucleotide": "CUGUGACCACAAGAUCCUACCUGAGUGGCAGCUGAAGUUGACUCCCUCUCCUUGCCUGAACCCCCCCCCACUGCCCCUUGAGUCCACGCAGAAUUCCGAGAUGUUGCCUCUGCACGGUUC", "bound/input enrichment": "1.03 ratio"}
{"Oligonucleotide": "AUAGAUGAAAUUGAUGUGGACCAGGAAGGAAUUGCUGAAAUGAUCCUGGAUGAAAAUGCUAUUGCUCAGGUCCCACGCCCUGGCACAUCUUUGAAGCUCCCUGGAACUAACCAAACAGGA", "bound/input enrichment": "0.338 ratio"}
{"Oligonucleotide": "AUCCAGUACUCGAAUCACAAAGAACUAAAGACAGAUAAUACAUUAAACCAACGUGCUCAAGUAGUUCUUCAAGCUGUGACAGCUGUCCAGACAGCAAAUACUCCUCUUAGUGGCACCACA", "bound/input enrichment": "0.34 ratio"}
{"Oligonucleotide": "UCUUAACUUAUUCAUUUAACUUAUUUUUAUAGCUAGAUAAAUAUUGUUAGUCUUAGACAAUAGCUCACAUUUUUUGAGAAGCAUGCCCUCCCUGUCCAUUGGGCCCACAAUAACACUCAG", "bound/input enrichment": "16.5 ratio"}
{"Oligonucleotide": "GGUGGGGUGGUCAUUGCCGUUUGAGCUGCUGAUUUUCUUAUGAAUCAUUCAAAACUCUCGUGUAGGGUUGACAAUGUGGGGGGGUGGGGGAUCCAGCUUAUUCUUUUAUUUUCAAGUCCA", "bound/input enrichment": "0.721 ratio"}
{"Oligonucleotide": "CAGUCCCCGUGUCCCAGUGCAGGACGAUGUGAACAAAAACUCAAAGCGGCCCUUUCUUUGUAGUUCUUGAUUCUCGAAAUGUGCUAUUAUUGUUUGUCUUUUUUUUUAAAAGAAAAGAGA", "bound/input enrichment": "0.235 ratio"}
{"data": "Series 2", "target": "Ras GTPase-activating protein-binding protein 1, RRM domain (G3BP1, Homo sapiens, UniProt Q13283)", "technique": "RNA Bind-n-Seq", "molecule type": "RNA", "matrix": "in vitro", "tested at": "1 µM", "setting": "whole 134-nt RNA, ends assumed", "with": "150 mM KCl", "reference": "input library", "reading": "higher = stronger binding", "shared flanks, not repeated": "GGGAGUUCUACAGUCCGACGAUC … UGGAAUUCUCGGGUGUCAAGG", "UniProt Q13283, sequence (whole entry, looked up)": "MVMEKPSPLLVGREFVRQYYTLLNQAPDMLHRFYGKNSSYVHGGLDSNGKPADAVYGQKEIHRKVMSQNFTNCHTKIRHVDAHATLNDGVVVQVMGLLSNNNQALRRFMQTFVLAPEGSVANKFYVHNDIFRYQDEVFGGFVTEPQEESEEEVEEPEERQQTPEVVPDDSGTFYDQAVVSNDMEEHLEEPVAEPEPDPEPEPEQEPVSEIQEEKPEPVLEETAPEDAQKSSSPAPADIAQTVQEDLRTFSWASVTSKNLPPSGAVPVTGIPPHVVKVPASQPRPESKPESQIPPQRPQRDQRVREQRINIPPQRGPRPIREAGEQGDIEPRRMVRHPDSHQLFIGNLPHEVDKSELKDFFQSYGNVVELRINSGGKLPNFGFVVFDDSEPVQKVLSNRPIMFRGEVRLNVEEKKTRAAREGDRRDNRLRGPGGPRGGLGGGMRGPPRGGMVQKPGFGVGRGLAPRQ"}
{"Oligonucleotide": "GUCCUGUGCUACACAUCGUAUGUACCGAAUCGGGGCCCCCGGGCCCCCGGCCCCCGGGAAAGUAUUAUGUUACGCCGUUCGGAUCUGCAC", "log2 enrichment": -0.436}
{"Oligonucleotide": "AGUCCUGUGCUACACAUCGUAUGUACCGAAUCGGCCCCCGGCCCCCGGGGCCCCCGGGAAAGUAUUAUGUUACGCCGUUCGGAUCUGCAC", "log2 enrichment": -0.443}
{"Oligonucleotide": "CUCAAGUCCUGUGCUACACAUCGUAUGUACCGAAUCGGCCCGGCCCGGGCCCGGAAAGUAUUAUGUUACGCCGUUCGGAUCUGCACUUCC", "log2 enrichment": -0.614}
{"Oligonucleotide": "AACUAAUACUCUUAAAUGGUCUUUCAGUAUAGUGGUUCUUACGUAGUUUAACAUAGCUAUAAAUUGAGUUUAACAAUUUAUAAACUCAAG", "log2 enrichment": -0.202}
{"Oligonucleotide": "CAAGUCCUGUGCUACACAUCGUAUGUACCGAAUCGGAAAAGGAAAAGGAAAAGGGAAAGUAUUAUGUUACGCCGUUCGGAUCUGCACUUC", "log2 enrichment": -0.205}
{"Oligonucleotide": "CAAGUCCUGUGCUACACAUCGUAUGUACCGAAUCGGAAAAGGGAAAAGGAAAAGGGAAAGUAUUAUGUUACGCCGUUCGGAUCUGCACUU", "log2 enrichment": -0.247}
{"Oligonucleotide": "UCAAGUCCUGUGCUACACAUCGUAUGUACCGAAUCGGGCCCGGGGCCCGGCCCGGAAAGUAUUAUGUUACGCCGUUCGGAUCUGCACUUC", "log2 enrichment": -0.539}
{"Oligonucleotide": "CCUCAAGUCCUGUGCUACACAUCGUAUGUACCGAAUCGGGUGGGGUGGGGUGGAAAGUAUUAUGUUACGCCGUUCGGAUCUGCACUUCCA", "log2 enrichment": 0.0517}
{"Oligonucleotide": "CUCAAGUCCUGUGCUACACAUCGUAUGUACCGAAUCGGAAAGGUUUGGAAAGGAAAGUAUUAUGUUACGCCGUUCGGAUCUGCACUUCCA", "log2 enrichment": -0.237}
{"data": "Series 3", "target": "RNA binding protein fox-1 homolog 2, RRM domain, GST-SBP tag (RBFOX2, Homo sapiens, UniProt O43251-10, residues 100-194)", "technique": "RNA Bind-n-Seq", "molecule type": "RNA", "matrix": "in vitro", "tested at": "365 nM", "setting": "natural RNA segment, single round, ends assumed", "reference": "no-protein control", "reading": "higher = stronger binding", "shared flanks, not repeated": "GGGAGUUCUACAGUCCGACGAUC … UGGAAUUCUCGGGUGCCAA", "Construct (chain)": "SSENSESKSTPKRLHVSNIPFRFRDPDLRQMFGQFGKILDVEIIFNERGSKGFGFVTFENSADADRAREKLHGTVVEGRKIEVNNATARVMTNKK"}
{"Oligonucleotide": "CUAAGCCAAGUUUCUUUUAGAGACAUUUUAACUUAUUUAGCUGAACUCUAGAUUUUUUGGUAAACUAUCAAUCUGUAUAUGUUGUAAUUAAGUGUCUAAUGCUAGGAGUU", "RBNS enrichment (R)": 0.572}
{"Oligonucleotide": "GGAGCCUCUGCACCCAGGGAAAAUGUUACCCUUUACAGGGGGGAAGGGUAAACCAGUAGGGAAUACAGUACAAUCCCAACCCUACUGGGAGGGGCGGGAGGGAGGUGUUG", "RBNS enrichment (R)": 1.03}
{"Oligonucleotide": "GUAUGCAUAUGUAUGGGUGUGUGUGUGUGCGCGCAAUCAAACUGUGGUGUAAAUAGAUUCUCAGUGAAUUCUGGUAUUCAGACUCUAUUCCACUAGUGAAAGAACCAUUU", "RBNS enrichment (R)": 0.596}
{"Oligonucleotide": "UUUGUAUGUUUAGUUUUGUGUCUCGUAACAGUGUUCACAUUUGUGAUUCUGAUGUCAGUAUUGUGUCACCUGAGCGGGAUGAUUACCUGAGUACCAUAGGAACUUUGUAC", "RBNS enrichment (R)": 0.321}
{"Oligonucleotide": "UGCACUUCAAAAAAGCUUAAUUAAGUACAACCAACCACCUUUCCAGCCAUAGAGAUUUUAAUUAGCCCAACUAGAAGCCUAGUGUGUGUGCUUUCUUAAUGUGUGUGCCA", "RBNS enrichment (R)": 0.523}
{"Oligonucleotide": "AGUAAAUAAAAUACAUAUUUGACAGCCCCCUCAUCCCCCAGAACAAUCCCUCAAAGGCUACCCUACCCGUGAUACCUUCUGGGAGGGGCGGAGUCACCGAGACUGAGAUG", "RBNS enrichment (R)": 0.27}
{"Oligonucleotide": "ACUGACGCACGGCAGGAGAUUUUUGUUUUUGUUUUCCUGUAUAUGAAAUGUUUUUCAAACCAUCCUCUCCUCAGGCCACCACCCCUUACCCUAACCCAUCACGCCCUGGU", "RBNS enrichment (R)": 3.95}
{"Oligonucleotide": "UUUCCUCAUGCUUUUUUGCUUAGAUUACUCUUUGACUGUACCUUCUGUUCAAAUUUGCUUCCUUCAUGUCUUUUGAGACAGCAUCUCCUGAUUGAGUUCGCCUCACACCA", "RBNS enrichment (R)": 0.493}
{"data": "Series 4", "target": "Phosphate system positive regulatory protein PHO4, full length, GST-tagged (PHO4, Saccharomyces cerevisiae, UniProt P07270, residues 1-312)", "technique": "competition protein-binding microarray", "molecule type": "double-stranded DNA, one strand shown", "matrix": "in vitro", "tested at": "2 µM", "setting": "whole 60-bp probe, lowest competitor level", "with": "Cbf1 competitor, 0.05 µM", "reading": "higher = stronger binding", "shared flanks, not repeated": "… GTCTTGATTCGCTTGACGCTGCTG", "Construct (chain)": "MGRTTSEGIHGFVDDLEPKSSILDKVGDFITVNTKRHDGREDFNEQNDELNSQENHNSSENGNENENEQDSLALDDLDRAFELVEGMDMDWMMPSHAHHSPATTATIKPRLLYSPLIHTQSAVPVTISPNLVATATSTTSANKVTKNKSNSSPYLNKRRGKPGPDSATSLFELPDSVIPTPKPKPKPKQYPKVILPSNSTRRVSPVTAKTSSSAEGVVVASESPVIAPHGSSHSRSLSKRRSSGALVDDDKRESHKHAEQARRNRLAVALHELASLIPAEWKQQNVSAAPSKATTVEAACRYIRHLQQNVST"}
{"Oligonucleotide": "AACTTTCTAGTCGACCACGTGAGTCCGCCCAGTCTT", "fluorescence intensity": "17800 a.u."}
{"Oligonucleotide": "CTAACGAAGGTTTTTCACGTGAAGTACAAGCCAAGT", "fluorescence intensity": "8720 a.u."}
{"Oligonucleotide": "CCGGGTGATGCTTGACGCGTTTTTGGAAACGATGAG", "fluorescence intensity": "6250 a.u."}
{"Oligonucleotide": "CATACCCAACCTTGTCACTCGACTTAAGATATTTGT", "fluorescence intensity": "3410 a.u."}
{"Oligonucleotide": "CATACCCAACCTTTTCACGTGTTGTAAGATATTTGT", "fluorescence intensity": "16600 a.u."}
{"Oligonucleotide": "AAATTACTAAGTTGACAGGTGGGTGACGCCGTATGA", "fluorescence intensity": "5990 a.u."}
{"Oligonucleotide": "GAGCGGGATTCCCATCACGTGGTGATGGGATAATGC", "fluorescence intensity": "14200 a.u."}
{"Oligonucleotide": "CTGGGTCCGTTACGATTCGTGCTTTAAGAGGTTTAA", "fluorescence intensity": "5660 a.u."}
{"Oligonucleotide": "TTACTGACGTTATTGAACGTGAGATTATTTTGCTTG", "fluorescence intensity": "6340 a.u."}
{"Oligonucleotide": "ATGCTGCTAAAGGAACACGTGAGAAATTACATTCTC", "fluorescence intensity": "15500 a.u."}
{"Oligonucleotide": "CGGGGTTAAGTTTGGCTGGTGGGTGGCTTGCAGCAG", "fluorescence intensity": "4530 a.u."}
{"Oligonucleotide": "CTTTCCCGATCTTGGTATGTGGGTGTAGCACATTTG", "fluorescence intensity": "5440 a.u."}
{"Oligonucleotide": "GCTGCTGGCTAAAATAGTGTGACGAAACGTACATAG", "fluorescence intensity": "4330 a.u."}
{"Oligonucleotide": "TGCGCAACAACTTTTCACGTGGCCTTATGTCTAGAA", "fluorescence intensity": "13600 a.u."}
{"Oligonucleotide": "GTCCGTAACAATTTGCACGATGCTGGCTTCTATGCC", "fluorescence intensity": "9680 a.u."}
{"Oligonucleotide": "CTCTGAGCACTCCATCACCTGAGTTAGGTAATACAT", "fluorescence intensity": "4560 a.u."}
{"Oligonucleotide": "CGTCCTAGTGATTTTCACGTGCGGTCCATGAGGAAG", "fluorescence intensity": "13800 a.u."}
{"Oligonucleotide": "TGCGCAACAACTTGTGTCGTGGGTGTATGTCTAGAA", "fluorescence intensity": "6870 a.u."}
{"Oligonucleotide": "CTTTCCCGATCTTGTCACTGAACTTTAGCACATTTG", "fluorescence intensity": "3700 a.u."}
{"note": "A few entries again (series 4):"}
{"Oligonucleotide": "GCTGCTGGCTAAAATAGTGTGACGAAACGTACATAG", "fluorescence intensity": "4330 a.u."}
{"Oligonucleotide": "ATGCTGCTAAAGGAACACGTGAGAAATTACATTCTC", "fluorescence intensity": "15500 a.u."}
